Values quoted from earlier work, collected from citations in different studies.
Lines come from different studies, so protocols differ. ± gives the spread as reported.
Chain of UniProt Q9P2K8 (whole entry, unmodified, looked up): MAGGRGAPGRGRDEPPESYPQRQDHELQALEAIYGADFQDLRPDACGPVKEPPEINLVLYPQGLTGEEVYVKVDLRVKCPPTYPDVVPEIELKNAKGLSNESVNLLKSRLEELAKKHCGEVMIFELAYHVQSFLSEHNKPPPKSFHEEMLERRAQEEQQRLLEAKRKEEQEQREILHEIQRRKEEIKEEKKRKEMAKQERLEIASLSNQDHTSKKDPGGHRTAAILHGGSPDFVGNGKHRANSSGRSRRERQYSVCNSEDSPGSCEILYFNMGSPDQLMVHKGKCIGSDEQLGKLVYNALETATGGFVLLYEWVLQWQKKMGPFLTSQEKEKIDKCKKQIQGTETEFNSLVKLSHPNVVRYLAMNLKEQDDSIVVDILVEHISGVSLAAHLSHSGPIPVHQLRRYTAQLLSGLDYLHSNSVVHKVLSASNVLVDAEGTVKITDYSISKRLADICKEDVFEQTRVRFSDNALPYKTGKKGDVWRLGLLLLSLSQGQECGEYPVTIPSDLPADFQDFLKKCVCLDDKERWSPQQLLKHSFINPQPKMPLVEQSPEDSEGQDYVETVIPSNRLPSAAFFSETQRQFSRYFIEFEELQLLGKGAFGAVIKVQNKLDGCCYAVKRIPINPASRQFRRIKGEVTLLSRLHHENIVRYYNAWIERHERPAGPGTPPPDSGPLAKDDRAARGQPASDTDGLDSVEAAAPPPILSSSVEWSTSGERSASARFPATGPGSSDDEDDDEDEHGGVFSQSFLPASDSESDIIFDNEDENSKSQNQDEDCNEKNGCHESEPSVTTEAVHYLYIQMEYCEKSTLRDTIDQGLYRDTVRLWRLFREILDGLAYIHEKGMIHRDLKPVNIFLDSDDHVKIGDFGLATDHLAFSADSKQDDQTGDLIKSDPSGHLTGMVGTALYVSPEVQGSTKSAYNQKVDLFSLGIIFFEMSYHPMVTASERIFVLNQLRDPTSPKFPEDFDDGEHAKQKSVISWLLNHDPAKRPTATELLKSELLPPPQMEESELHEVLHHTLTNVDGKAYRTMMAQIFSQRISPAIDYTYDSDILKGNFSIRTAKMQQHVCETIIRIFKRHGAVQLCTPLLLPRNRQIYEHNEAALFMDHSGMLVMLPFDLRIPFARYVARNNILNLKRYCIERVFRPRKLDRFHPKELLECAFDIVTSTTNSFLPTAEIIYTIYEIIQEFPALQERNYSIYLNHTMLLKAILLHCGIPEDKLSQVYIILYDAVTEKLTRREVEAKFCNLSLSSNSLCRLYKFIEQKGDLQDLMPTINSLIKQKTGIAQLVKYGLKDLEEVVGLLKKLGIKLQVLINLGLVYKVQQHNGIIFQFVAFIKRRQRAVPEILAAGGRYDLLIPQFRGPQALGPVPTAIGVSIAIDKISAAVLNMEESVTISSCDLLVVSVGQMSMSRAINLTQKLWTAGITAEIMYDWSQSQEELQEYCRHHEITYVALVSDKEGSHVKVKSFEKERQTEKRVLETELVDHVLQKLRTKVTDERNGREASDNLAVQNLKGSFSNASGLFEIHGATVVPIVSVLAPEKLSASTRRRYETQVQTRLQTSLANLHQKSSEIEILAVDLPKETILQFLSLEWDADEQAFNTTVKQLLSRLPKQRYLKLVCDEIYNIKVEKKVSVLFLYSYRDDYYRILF

Compound | tested on | assay | system | setting | scale | measurement | value
O=C(c1ccc(Cl)cc1)N(Cc1ccccc1)C1CCCCC1 | HUVEC | cell viability |  |  |  | highest non-toxic concentration | ≤ 1 nM
CCCC(CCC)C(=O)O | mouse D3 embryonic stem cells | cell differentiation, inhibitor |  | unbound medium concentration |  | IC10 | 189 µM
CNC(C)C1CCC(N)C(OC2C(N)CC(N)C(OC3OCC(C)(O)C(NC)C3O)C2O)O1 (stereo not drawn) | Klebsiella pneumoniae |  | clinical isolate RKI-No_229/15 |  |  | MIC | > 8 µg/mL
CC(C)C[C@H](NC(=O)[C@@H](O)[C@H](N)Cc1ccccc1)C(=O)O | Vero | MTT |  |  |  | CC50 | 25 ± 4.1 µM
COc1cc2oc(-c3ccc(O)c(O)c3)cc(=O)c2c(O)c1O | Huh7.5 | cell viability |  |  |  | CC50 | 114 µM
COc1c(Br)cccc1C(=O)Nc1ccc(Sc2nc3ccccc3s2)cc1 | HEK293 |  |  |  |  | CC50 | > 100 µM
CCCCCCCCCc1c(C)[nH]c2ccccc2c1=O | Plasmodium falciparum | whole cell extended time | 3D7 | 72 h |  | IC50 | 0.16 µM
CCCCC(CC)C(=O)O (stereo not drawn) | mouse D3 embryonic stem cells | cell differentiation, inhibitor |  | unbound medium concentration |  | IC10 | 406 µM
Nc1cc(C(F)(F)F)c(-c2nc(N3CCOCC3)nc(N3CCOCC3)n2)cn1 | EIF2AK4 (Homo sapiens, UniProt Q9P2K8, S808G) | enzyme activity |  | 10 µM | baseline: untreated | remaining activity | 100%
C=CCC(CCC)C(=O)O (stereo not drawn) | mouse D3 embryonic stem cells | cell differentiation, inhibitor |  | unbound medium concentration |  | IC10 | 212 µM
CCCCCCc1ccc(C(=O)CCN(CCCC)CCCC)cc1 | several cell lines |  |  | 150 µM |  | viability | < 5%
C[C@@H](Oc1ccc(S(C)(=O)=O)cc1C(=O)N1C[C@@H]2C[C@]2(c2cc(C(F)(F)F)on2)C1)C(F)(F)F | primary human hepatocytes | CYP3A4 induction, inducer |  |  |  | EC50 | 1.96 µM
O=C1Oc2ccc3ccccc3c2C1c1c[nH]c2ccccc12 (stereo not drawn) | COLO 205 colon adenocarcinoma |  |  | concentration not given |  | cytotoxicity | no effect
CCC(CC)COC(=O)[C@H](C)N[P@](=O)(OC[C@H]1O[C@@](C#N)(c2ccc3c(N)ncnn23)[C@H](O)[C@@H]1O)Oc1ccccc1 | Vero | cytotoxicity |  |  |  | CC50 | > 100 µM
C[C@H]1COCCN1c1nc(-c2cnc(N)cc2C(F)F)nc(N2CCOCC2)n1 | COLO-829 |  |  |  |  | GI50 | 0.93 µM
CC1(C)S[C@@H]2[C@H](NC(=O)[C@H](N)c3ccccc3)C(=O)N2[C@H]1C(=O)O | Klebsiella pneumoniae |  | clinical isolate RKI-No_577/15 |  |  | MIC | > 16 µg/mL
Cc1cc(C#N)cc(C)c1Oc1nc(Nc2ccc(C#N)cc2)nc(N)c1Br | MT-4 |  |  |  |  | CC50 | ~5 µM
Cc1[nH]c(C)c(-c2ccc(OCCOc3ccc(C(F)(F)F)cn3)cc2)c(=O)c1Br | Plasmodium falciparum | whole cell extended time | 3D7 | 72 h |  | IC50 | 0.14 µM
O=c1cc(-c2ccccc2)oc2cc(O)c(O)c(O)c12 | Vero |  |  |  |  | CC50 | 291 µg/mL
CCCCCC(CCC)C(=O)O (stereo not drawn) | human neural embryonic cells | cell viability |  | unbound medium concentration |  | EC10 | 43 µM
CC(=O)O[C@H]1C(=O)[C@@]2(C)[C@H]([C@H](OC(=O)c3ccccc3)[C@]3(O)C[C@H](OC(=O)[C@H](O)[C@@H](NC(=O)c4ccccc4)c4ccccc4)C(C)=C1C3(C)C)[C@]1(OC(C)=O)CO[C@@H]1C[C@@H]2O | LCC6-WT | cytotoxicity |  |  |  | IC50 | 0.00181 µM

Some of these lines once more:
Compound | tested on | assay | system | setting | scale | measurement | value
COc1c(Br)cccc1C(=O)Nc1ccc(Sc2nc3ccccc3s2)cc1 | HEK293 |  |  |  |  | CC50 | > 100 µM
CCCCCCCCCc1c(C)[nH]c2ccccc2c1=O | Plasmodium falciparum | whole cell extended time | 3D7 | 72 h |  | IC50 | 0.16 µM
CCCCC(CC)C(=O)O (stereo not drawn) | mouse D3 embryonic stem cells | cell differentiation, inhibitor |  | unbound medium concentration |  | IC10 | 406 µM
